Assay results from different studies.
Each numbered part is a random draw from the data of one study; scales do not carry over between parts.

Set 1 — method: protein-binding microarray; molecule type: double-stranded DNA, one strand shown; medium: in vitro; tested at: 940 nM top; setting: 60-bp whole probe; added: salmon DNA 0.4 mg/ml; baseline: random background probes; direction: higher = stronger binding; shared flanks, not repeated: GCCTAGCAC … GTCTTGATTCGCTTGACGCTGCTG
Target: Interferon regulatory factor 5, full length, phosphomimetic (IRF5, Homo sapiens, UniProt Q13568-2, residues 1-514, S451D/S453D/S456D/S462D)
For `TTAGTTTTCGGGACTGGGTTAGTGCTA`, “fitted relative affinity” read 1.83 z-score.
Under “fitted relative affinity”, `TCACTTTTTTTTTTTTTACTGTGCTAG` is recorded as 1.49 z-score.
For `GACAGTCTCCTTCTCCTGACGTGCTAG`, “fitted relative affinity” read 0.879 z-score.
Under “fitted relative affinity”, `GTAGGTTTCGGGTTTCGGTTAGTGCTA` is recorded as 11.1 z-score.
For `GACGGTCTTGGACTGGGGACGTGCTAG`, “fitted relative affinity” read -0.294 z-score.
`TTAGATTTCAGTTCCGTTTAGTGCTAG` — result for “fitted relative affinity”: 1.77 z-score.
`TTAGGACTGGACACTGAGTTAGTGCTA` — result for “fitted relative affinity”: -0.306 z-score.
`AGGGCAGGGAGGGGGACAGCGTGCTAG`: “fitted relative affinity” 1.96 z-score.
`TTAGAACTGGGACTGGATTAGTGCTAG` — result for “fitted relative affinity”: -0.602 z-score.
Under “fitted relative affinity”, `TCACATTACAGCTATTTTACTGTGCTA` is recorded as 0.86 z-score.
`GACGAACTGAGACTCGAGACGTGCTAG` — result for “fitted relative affinity”: -0.17 z-score.
`CCTCACATGACTGAATGGACGTGCTAG` — result for “fitted relative affinity”: -0.332 z-score.
`CCCGCCCCGCCCCGCCCGCAGTGCTAG` — result for “fitted relative affinity”: -0.459 z-score.
`GAGGGTATCGACTATCGGGACGTGCTA` — result for “fitted relative affinity”: 2.88 z-score.
For `GACGGATTCGGTATCGGGACGTGCTAG`, “fitted relative affinity” read 2.33 z-score.
Under “fitted relative affinity”, `GACGATTTTAGTTCCGAGACGTGCTAG` is recorded as 0.871 z-score.
Under “fitted relative affinity”, `GACGATTTCGGGACTGGAGGCGTGCTA` is recorded as -0.105 z-score.
`TCAGAAATTCCTCTGAAACTGTGCTAG`: “fitted relative affinity” -0.0171 z-score.
`TTAGGTATCGACTTTGGGTTAGTGCTA` — result for “fitted relative affinity”: 4.68 z-score.
`TAGCGTATATTCCCTAGAATAGTGCTA` — result for “fitted relative affinity”: -0.306 z-score.
`TTTGGTGTCTTTTGTGGAAACGTGCTA`: “fitted relative affinity” -0.0569 z-score.

Set 2 — method: RNA Bind-n-Seq; molecule type: RNA; medium: in vitro; tested at: 200 nM; setting: whole 134-nt RNA, ends assumed; added: 150 mM LiCl; baseline: input library; direction: higher = stronger binding; library: 7-deaza-guanosine replaces G
Target: Fragile X messenger ribonucleoprotein 1, C-terminal low-complexity region (Fmr1, Mus musculus, UniProt P35922)
The log2 enrichment of `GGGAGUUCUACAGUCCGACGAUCCAAGUCCUGUGCUACACAUCGUAUGUACCGAAUCGGGGUGGGGAAAGGGGUGGGGAAAGUAUUAUGUUACGCCGUUCGGAUCUGCACUUCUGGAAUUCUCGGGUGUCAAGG` is reported as -0.456.
`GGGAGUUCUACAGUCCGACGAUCUGGCCCUGGUGGCAUGCGGGGAGGAAGAGGUGGCCUCAUGGAUCGUGGUGGUCCCGGUGGAAUAUUCAGAGGUGGCCGUGGUGGAGACAGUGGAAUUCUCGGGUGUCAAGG` has a log2 enrichment of 0.179.
`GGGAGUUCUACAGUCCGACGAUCUGGGAGGUCGAUUUUGUUUAUUUUUUUAGCUCAUUUCCAGGGGUGGGAAUUUUUUUUUAAUAUGUGUCAUGAAUAAAGUUGUUUUUGAAAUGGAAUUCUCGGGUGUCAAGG` gave a log2 enrichment of 0.925.
`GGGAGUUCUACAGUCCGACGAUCUCCUGUGCUACACAUCGUAUGUACCGAAUCGGUUUUUUGGGUUUUUUGGGUUUUUUGGGGAAAGUAUUAUGUUACGCCGUUCGGAUCUGCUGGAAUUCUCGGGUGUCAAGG` gave a log2 enrichment of -1.31.
`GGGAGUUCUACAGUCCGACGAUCCUCAAGUCCUGUGCUACACAUCGUAUGUACCGAAUCGGUUGGGUUGGGGUUGGAAAGUAUUAUGUUACGCCGUUCGGAUCUGCACUUCCAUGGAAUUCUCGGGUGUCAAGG` has a log2 enrichment of -0.113.
`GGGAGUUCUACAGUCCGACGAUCACCAUGCAGGUGGGCAUCUUUGGGAAGUGGGGCAAGGGGGGGAUAGGGAGGGGGGUAACACUUUGGGAACAGGUGGUCCCACGUCGUUUCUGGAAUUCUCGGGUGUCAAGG` has a log2 enrichment of 1.35.
With `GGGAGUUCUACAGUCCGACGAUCACCAUGCAGGGGGGCAUCUUUGGGAAGUGGGGCAAGGGGGGGAUAGGGAGGGGGGUAACACUUUGGGAACAGGUGGUCCCAGGUCGUUUCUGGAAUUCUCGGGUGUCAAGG` the log2 enrichment was 1.67.
`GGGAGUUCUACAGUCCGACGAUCUGGCCCUGGUGGCAUGCGGGGAGGAAGAGGUGGCCUCAUGGAUCUUGGUGGUCCCGGUGGAAUGUUCAGAGGUGGCCGUGGUGGAGACAGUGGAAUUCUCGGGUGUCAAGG` has a log2 enrichment of -0.261.
The log2 enrichment of `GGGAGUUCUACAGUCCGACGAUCGCAGGAAGUAAAAACAAAUGGAAAUGCUUCGGAUAGUGGCAGGGGUGGGGGUUGCUAAGGAAAGGGUCGGAUGGGAGUGGGUAAAGAGUUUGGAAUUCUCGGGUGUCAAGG` is reported as 1.22.
With `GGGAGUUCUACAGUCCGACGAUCCACAGACAACACGCACCCACACAGCCACAGAGGGAAGGGGUUGGGAUGGGGACAGGGUGCACAGCAGGGCGGGGUAGGACCCCAGCCCCUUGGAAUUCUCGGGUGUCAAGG` the log2 enrichment was 0.317.
The log2 enrichment of `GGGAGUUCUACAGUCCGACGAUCGUCCUGUGCUACACAUCGUAUGUACCGAAUCAAACCCCCAAACCCCCCCAAACCCAAAAAAGUAUUAUGUUACGCCGUUCGGAUCUGCACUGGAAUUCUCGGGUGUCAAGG` is reported as 0.854.

Set 3 — method: aptamer microarray, sandwich; molecule type: DNA with 2'F-ANA; medium: in vitro; tested at: 200 nM; added: Cy3 exosite-II aptamer, 400 nM; direction: higher = stronger binding; sequence: GGTTGGTGTGGTTGG
Target: Prothrombin, mature alpha-thrombin (F2, Homo sapiens, UniProt P00734)
Setting: whole 15-mer aptamer, many near background
`2'F-ANA at 3 4 9 10 15` — result for “mean fluorescence intensity”: 307 a.u.
For `2'F-ANA at 5 6 7 8`, “mean fluorescence intensity” read 83.8 a.u.
`2'F-ANA at 6 7 9 12 14` — result for “mean fluorescence intensity”: 212 a.u.
`2'F-ANA at 1 3 6 11 13 14`: “mean fluorescence intensity” 72.8 a.u.
`2'F-ANA at 1 4 5 6 9 12 15`: “mean fluorescence intensity” 104 a.u.
`2'F-ANA at 2 5 7 8 11 13 15` — result for “mean fluorescence intensity”: 59.6 a.u.
`2'F-ANA at 1 5 11 12 13` — result for “mean fluorescence intensity”: 81.2 a.u.
`2'F-ANA at 2 4 6 7 9 11 12 15`: “mean fluorescence intensity” 331 a.u.
`2'F-ANA at 2 3 5 7 10 11 12 13`: “mean fluorescence intensity” 65.2 a.u.
`2'F-ANA at 1 2 3 5 6 10 11 12 13 14`: “mean fluorescence intensity” 48.8 a.u.
`2'F-ANA at 2 4 7 11 12 15`: “mean fluorescence intensity” 420 a.u.
For `2'F-ANA at 1 2 4 5 8 11 13 15`, “mean fluorescence intensity” read 51.6 a.u.
`2'F-ANA at 1 2 5 6 7 8 9 10 11 15` — result for “mean fluorescence intensity”: 50.9 a.u.
Under “mean fluorescence intensity”, `2'F-ANA at 2 5 6 7 9 11 15` is recorded as 94.4 a.u.
Under “mean fluorescence intensity”, `2'F-ANA at 4 5 6 10 11 15` is recorded as 44.8 a.u.
`2'F-ANA at 4 8 9 13 15`: “mean fluorescence intensity” 186 a.u.
For `2'F-ANA at 3 5 6 7 9 12 14`, “mean fluorescence intensity” read 54.4 a.u.
`2'F-ANA at 3 8 10 11 12 14`: “mean fluorescence intensity” 342 a.u.
`2'F-ANA at 2 3 4 5 7 9 15`: “mean fluorescence intensity” 87.8 a.u.
`2'F-ANA at 1 2 7 11 12 13 14 15` — result for “mean fluorescence intensity”: 63.4 a.u.
Under “mean fluorescence intensity”, `2'F-ANA at 2 3 6 8 9 11 12 13 15` is recorded as 808 a.u.

Set 4 — method: RNA Bind-n-Seq; molecule type: RNA; medium: in vitro; tested at: 365 nM; baseline: no-protein control; direction: higher = stronger binding
Target: RNA binding protein fox-1 homolog 2, RRM domain, GST-SBP tag (RBFOX2, Homo sapiens, UniProt O43251-10, residues 100-194)
Setting: natural RNA segment, single round, ends assumed
Target sequence (chain): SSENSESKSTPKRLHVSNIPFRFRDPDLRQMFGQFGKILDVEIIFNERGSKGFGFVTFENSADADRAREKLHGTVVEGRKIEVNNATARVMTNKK
`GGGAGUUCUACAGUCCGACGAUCCUUUUUCACUCCAUCCAGCUUAGAGUCCCCUGCUGGCUUGUCACUCGCCUGCUUUGUGCCAGGCUGGUCUGUGUCCCCCUGAGCCUCAUGGCCUACGGUGAUGCCUGUGGUGGAAUUCUCGGGUGCCAA` — result for “RBNS enrichment (R)”: 1.24.
For `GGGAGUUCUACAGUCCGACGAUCACAGGGGGGUCGGAAGCCUGUCCUCACCGUCUCGGGGGUUGUGGCCCCCGCCCCCUCCCUAUAUGCACCCCUGGAACCAGCAAGUCCCAGACAAGGAGAGCGGAGGAGGAUGGAAUUCUCGGGUGCCAA`, “RBNS enrichment (R)” read 0.383.
For `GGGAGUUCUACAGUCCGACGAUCUAGUUUUAUUUUGGUGGGGCUGGGCGGGAAGGAAGGCUGGGGUUUUGUAAAGUGUCCACUGCGCCGUUCGUUUAUUUCCCUCGAUUUUCUUCUUCCUCUCGCCUUCCUUCUGGAAUUCUCGGGUGCCAA`, “RBNS enrichment (R)” read 0.617.
For `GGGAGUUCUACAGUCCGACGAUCGAUCAUGAUUUCCAGCCCACGGAGCCAGCAUUUGAACCUUGUAUAAUUAACUUUCAGUUAUGAUUUCCCAUCGACAUUUUCUUUGCCCUGUUUGUAGCUGAUUGUUGUGUUGGAAUUCUCGGGUGCCAA`, “RBNS enrichment (R)” read 0.481.
`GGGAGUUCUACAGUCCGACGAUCACAGGUGCGUCUGUCUAUAUGUCUGGGUUCUUGUCUUUUGUGGUCUGUUUGUCUUUUCUACCUCUUUCUCUUGCAGUGAUAGACUGAGGGGGUAAAAUCAAGAGAAAAAAUGGAAUUCUCGGGUGCCAA` — result for “RBNS enrichment (R)”: 0.705.
`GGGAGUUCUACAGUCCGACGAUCAAUUCAUAGUAUAUUGUUGUUUGUGACAUGAACUCCAAGAUACACAAAGGAGCCCAGGGAACUAUGUCCCCAGUAGGUUUAACCCAACCAAACACCAGAGGCUGUUAAUUUGGAAUUCUCGGGUGCCAA`: “RBNS enrichment (R)” 0.417.
`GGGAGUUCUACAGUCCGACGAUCAAGCUCAGUGUUUUAUUUCAGUAAAAAUUAUUUGGUCAUAAAUUUUGGGAAGAACUGAUUUCUUUUUUUAAAUCAAAGUUUUGUAAAUAGAUCUUACUUCUGAAUUUGAAUGGAAUUCUCGGGUGCCAA`: “RBNS enrichment (R)” 0.867.
Under “RBNS enrichment (R)”, `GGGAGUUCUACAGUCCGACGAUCGUGAUGAUGAUUUCUUUUCCCUGCACACAUCUUUCCGGUGCAAUAUCUAUCAAUUGUGAAUCUGGCUGCUGGUGUAUAAAAACCUGGAUGUAAAGCUGAGCCUACAGACCUGGAAUUCUCGGGUGCCAA` is recorded as 0.515.
For `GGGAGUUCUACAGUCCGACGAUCCUUGACAUUGGUCUGUUUUGCUGUGAAUAUUGGAAAUGCUUAGGAUCUUCAGACCCAAUAGCUCUAAUUUUAACAUUUCUACCCAAUAAGAGGCUCUGUUUUCCACUGAAUGGAAUUCUCGGGUGCCAA`, “RBNS enrichment (R)” read 0.261.
